Measured values of several laboratories.
A part holds a random share of what one study measured.
UniProt P08047, sequence (whole entry, looked up): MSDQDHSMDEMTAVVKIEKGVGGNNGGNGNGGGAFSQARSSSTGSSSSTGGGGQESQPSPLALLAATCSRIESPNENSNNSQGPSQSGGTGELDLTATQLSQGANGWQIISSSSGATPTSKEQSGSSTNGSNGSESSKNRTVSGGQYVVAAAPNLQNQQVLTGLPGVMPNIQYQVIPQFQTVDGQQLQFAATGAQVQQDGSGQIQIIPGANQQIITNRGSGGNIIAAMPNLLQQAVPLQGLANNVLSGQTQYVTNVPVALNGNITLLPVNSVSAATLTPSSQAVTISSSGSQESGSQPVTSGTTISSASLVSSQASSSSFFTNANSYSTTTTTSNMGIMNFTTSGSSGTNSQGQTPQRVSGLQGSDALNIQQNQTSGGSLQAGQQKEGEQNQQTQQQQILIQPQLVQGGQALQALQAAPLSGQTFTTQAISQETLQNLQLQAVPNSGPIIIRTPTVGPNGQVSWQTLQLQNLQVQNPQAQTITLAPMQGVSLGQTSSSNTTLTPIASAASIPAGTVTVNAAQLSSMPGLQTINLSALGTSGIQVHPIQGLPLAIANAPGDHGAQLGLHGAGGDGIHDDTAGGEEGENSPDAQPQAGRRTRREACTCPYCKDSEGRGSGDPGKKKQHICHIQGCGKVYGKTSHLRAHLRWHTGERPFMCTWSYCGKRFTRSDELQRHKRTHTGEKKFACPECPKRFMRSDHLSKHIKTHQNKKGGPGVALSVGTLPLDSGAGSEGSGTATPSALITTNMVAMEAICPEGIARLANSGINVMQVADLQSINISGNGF

Block 1
Target: Histone acetyltransferase KAT6A, winged helix 1, GST fusion (KAT6A, Homo sapiens, UniProt Q92794, residues 1-85)
Method: protein binding microarray
Molecule type: double-stranded DNA, one strand shown
Medium: in vitro
Concentration: not given
Setting: 8-mer, flanks averaged, mean of 2 arrays, mostly near background
Reference: not given
Reading: higher = stronger binding
Construct (chain): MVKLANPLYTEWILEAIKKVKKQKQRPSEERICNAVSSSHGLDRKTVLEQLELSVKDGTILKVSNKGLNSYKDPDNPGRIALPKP
| Oligonucleotide | E-score |
| --- | --- |
| ATTCGAGA | -0.204 |
| ATGATTAC | 0.0586 |
| ACAGGGTA | -0.138 |
| ACGTGGAC | -0.0508 |

Block 2
Target: Interferon regulatory factor 5, full length, phosphomimetic (IRF5, Homo sapiens, UniProt Q13568-2, residues 1-514, K96S/S451D/S453D/S456D/S462D)
Method: protein-binding microarray
Molecule type: double-stranded DNA, one strand shown
Medium: in vitro
Concentration: 250 nM
Setting: 60-bp whole probe
With: salmon DNA 0.4 mg/ml
Reference: random background probes
Reading: higher = stronger binding
| Oligonucleotide | log fluorescence [z-score] |
| --- | --- |
| GCCTAGCACGACGGTTTCCTACTCCTGACGTGCTAGGTCTTGATTCGCTTGACGCTGCTG | 0.514 |
| GCCTAGCACTCATTTCTCAAATGTTTTACTGTGCTAGTCTTGATTCGCTTGACGCTGCTG | 1.26 |
| GCCTAGCACTTAGGTATCCTCATCCTTTAGTGCTAGGTCTTGATTCGCTTGACGCTGCTG | 0.0537 |

Single results of other studies
| Molecule | target | assay | test system | conditions | how to read | endpoint | result |
| --- | --- | --- | --- | --- | --- | --- | --- |
| CTATAGCC | Sal-like protein 4, full length isoform B (SALL4, Homo sapiens, UniProt Q9UJQ4-2, residues 1-616) | universal PBM | double-stranded DNA, one strand shown, in vitro | not given, 8-mer, flanks averaged, mean of replicates | higher = stronger binding | E-score | -0.12 |
| ACCACACC | Transcription factor Sp1 (SP1, Homo sapiens, UniProt P08047, residues 1-785, full length assumed) | protein-binding microarray | double-stranded DNA, one strand shown, in vitro | not given, k-mer, scored over probes, only values ≥0.25 | higher = stronger binding | E-score | 0.312 |
| PhoQ, residues 284 288 289 292 302 303 AEGLLW | PhoP, residues 12 14 15 18 19 NNFVT (Escherichia coli, UniProt P23836) | Sort-seq, item: YFP reporter | E. coli | PhoQ-PhoP variant library, with: 10 µM Mg2+ | reference: high Mg2+ state, higher = stronger signaling | fold induction | 2.85 |
| ACAATCTA | Sal-like protein 4, full length isoform A (SALL4, Homo sapiens, UniProt Q9UJQ4, residues 1-1053) | universal PBM | double-stranded DNA, one strand shown, in vitro | 600 nM, 8-mer, flanks averaged, mean of replicates | higher = stronger binding | E-score | 0.173 |

Excerpt of the above (block 2):
| Oligonucleotide | log fluorescence [z-score] |
| --- | --- |
| GCCTAGCACTTAGGTATCCTCATCCTTTAGTGCTAGGTCTTGATTCGCTTGACGCTGCTG | 0.0537 |
